Measured values gathered from unrelated publications.
Lines come from different studies, so protocols differ. ± marks the error that the study gave.

| assay | system | setting | half-life [h] | SMILES |
| --- | --- | --- | --- | --- |
| – | male athymic rat, intracranial U87 glioma, tumour extracellular fluid | oral, 50 mg/kg, recovery-corrected microdialysis, added: before cediranib | 1.9 | Cn1nnc2c(C(N)=O)ncn2c1=O |
| – | female Sprague-Dawley rat, plasma | oral gavage, 100 mg/kg, day 7 | 0.89 | Cc1nc2cccc(OCC(C)(C)C(=O)NC(C)C)c2c(N)c1C(=O)O |
| UPLC-MS/MS | Wistar rat, microcirculation dysfunction model, plasma | oral, 100 mg/kg Salvia miltiorrhiza stem-leaf extract FS | 2.1 ± 1.73 | O=C(/C=C/c1ccc(O)c(O)c1)O[C@H](Cc1ccc(O)c(O)c1)C(=O)O |
| – | CD Sprague Dawley rat, female, plasma | subcutaneous, 1.0 mg/kg daily, day 1 | 0.749 | CCCC[C@H](NC(C)=O)C(=O)N[C@H]1CCC(=O)NC[C@@H](C(=O)N[C@@H](Cc2c[nH]c3ccccc23)C(N)=O)NC(=O)[C@H](CCCNC(=N)N)NC(=O)[C@@H](Cc2ccccc2)NC(=O)[C@H](Cc2c[nH]cn2)NC1=O |
| – | Japanese, moderate hepatic impairment, plasma | oral, 150 mg single dose, mean | 11.2 | NC(=O)c1cnc2[nH]ccc2c1N[C@@H]1[C@@H]2CC3C[C@H]1C[C@@](O)(C3)C2 |
| LC-MS/MS | juvenile male Crl:WI(Han) rats, plasma | oral gavage, 0.3 mg/kg/day, postnatal day 17 | 4.59 | CCN1CCN(c2ccc(Nc3cc(N(C)C(=O)Nc4c(Cl)c(OC)cc(OC)c4Cl)ncn3)cc2)CC1 |
| – | moderate hepatic impairment patients, plasma, total | oral, 300 mg single dose, fed | 26.9 | CCc1cc2c(cc1N1CCC(N3CCOCC3)CC1)C(C)(C)c1[nH]c3cc(C#N)ccc3c1C2=O |
| – | Sprague-Dawley rat male, plasma | intravenous, 28 mg/kg | 0.97 ± 0.37 | COc1ccc(/C=C\c2cc(OC)c(OC)c(OC)c2)cc1OP(=O)(O)O |
| – | Sprague-Dawley rat, male, plasma | oral, 10 mg/kg | 4.08 ± 0.98 | C=CC(=O)Nc1cc(Nc2nccc(-c3cn(C)c4ccccc34)n2)c(OC)cc1N(C)CCN(C)C |
| – | Sprague Dawley rat, male, plasma | oral, 45 mg/kg, white ginseng extract | 6.5 ± 1.2 | CC(C)=CCC[C@](C)(O[C@@H]1O[C@H](CO)[C@@H](O)[C@H](O)[C@H]1O)[C@H]1CC[C@]2(C)[C@@H]1[C@H](O)C[C@@H]1[C@@]3(C)CC[C@H](O)C(C)(C)[C@@H]3[C@@H](O[C@@H]3O[C@H](CO)[C@@H](O)[C@H](O)[C@H]3O[C@@H]3O[C@@H](C)[C@H](O)[C@@H](O)[C@H]3O)C[C@]12C |
| – | male Sprague-Dawley rat, whole blood | intravenous, 0.5 mg/kg | 4 ± 1.4 | CCc1oc2cc(O)ccc2c1C(=O)c1cc(Br)c(O)c(Br)c1 |
| – | Sprague-Dawley rat, both sexes, plasma | oral, 100 mg/kg | 2.56 to 3.05 | COc1cccc(-c2n[nH]c(SCc3ccccn3)n2)c1OC |

For quick reference, copied from above:
| assay | system | setting | half-life [h] | SMILES |
| --- | --- | --- | --- | --- |
| – | Sprague-Dawley rat, both sexes, plasma | oral, 100 mg/kg | 2.56 to 3.05 | COc1cccc(-c2n[nH]c(SCc3ccccn3)n2)c1OC |
| – | male Sprague-Dawley rat, whole blood | intravenous, 0.5 mg/kg | 4 ± 1.4 | CCc1oc2cc(O)ccc2c1C(=O)c1cc(Br)c(O)c(Br)c1 |
